Assay results gathered from unrelated publications.
Each line is one published result; not all experiments were run side by side.
Organism: SARS-CoV-2

C[C@@H]1O[C@@H](n2c3ccccc3c3c4c(c5c6ccccc6[nH]c5c32)CNC4=O)C[C@@H](N)[C@H]1O — inhibition (viral replication, mNeonGreen reporter virus; 50 µM): 93.2%
Cc1ccc(N2CC(N3CCC(C)(O)CC3)C2)cc1C(=O)NC1(c2ccc3c4c(cccc24)CC3)CC1 — inhibition (viral replication; Vero C1008, Omicron BA.5; 0.05144 µM): 0%
Cc1oc2nc1C(=O)N[C@](C)(C(=O)O)c1nc(c(C)o1)C(=O)N[C@](C)(C(=O)O)c1nc(c(C)o1)C(=O)N[C@]2(C)C(=O)O — inhibition (viral adsorption; Vero E6, NRC-03-nhCoV; 10 µM): 24%
Cc1ccc(N2CC3CC(C2)N3C)cc1C(=O)NC1(c2ccc3c4c(cccc24)C(=O)N3C)CC1 — inhibition (viral replication; Vero C1008, Omicron BA.5; 0.05144 µM, 72 h): 0%
Cc1oc2nc1C(=O)N[C@](C)(C(=O)OC(C)C)c1nc(c(C)o1)C(=O)N[C@](C)(C(=O)OC(C)C)c1nc(c(C)o1)C(=O)N[C@]2(C)C(=O)OC(C)C — inhibition (viral replication; Vero E6, NRC-03-nhCoV; 5 µM): 6%
CC(C)CC(C(=O)N1CC2(CC1C#N)C(=O)Nc1ccccc12)N(C)C(=O)c1cc2c(F)cc(F)c(F)c2[nH]1 (stereo not drawn) — inhibition (viral replication, infectious virus; Vero E6; 0.1 µM): 100%
CCOC(=O)c1c(CSc2ccccc2)n(C)c2cc(-c3cccnc3)c(O)c(CN3CCN(CCOCCO)CC3)c12 — inhibition (Vero C1008, MEX-BC2/2020; 7.5 µM, 96 h): 23%
Cc1ccc(N2CCN(C)CC2)cc1C(=O)NC1(c2ccc3c4c(cccc24)CC3)CC1 — inhibition (viral replication; Vero C1008, Omicron BA.5; 0.1543 µM): 0%
Cc1oc2nc1C(=O)N[C@](C)(C(=O)NCCc1ccccc1)c1nc(c(C)o1)C(=O)N[C@](C)(C(=O)NCCc1ccccc1)c1nc(c(C)o1)C(=O)N[C@]2(C)C(=O)NCCc1ccccc1 — inhibition (viral adsorption; Vero E6, NRC-03-nhCoV; 10 µM): 9%

Excerpt of the above:
Cc1oc2nc1C(=O)N[C@](C)(C(=O)NCCc1ccccc1)c1nc(c(C)o1)C(=O)N[C@](C)(C(=O)NCCc1ccccc1)c1nc(c(C)o1)C(=O)N[C@]2(C)C(=O)NCCc1ccccc1 — inhibition (viral adsorption; Vero E6, NRC-03-nhCoV; 10 µM): 9%
